Results of several laboratories.
Each line is one published result; not all experiments were run side by side. Numbers after ± are the reported error. Square brackets hold non-standard residues; d marks the D form. * marks the point of attachment.
T1: Ffh/4.5S SRP RNA (Escherichia coli); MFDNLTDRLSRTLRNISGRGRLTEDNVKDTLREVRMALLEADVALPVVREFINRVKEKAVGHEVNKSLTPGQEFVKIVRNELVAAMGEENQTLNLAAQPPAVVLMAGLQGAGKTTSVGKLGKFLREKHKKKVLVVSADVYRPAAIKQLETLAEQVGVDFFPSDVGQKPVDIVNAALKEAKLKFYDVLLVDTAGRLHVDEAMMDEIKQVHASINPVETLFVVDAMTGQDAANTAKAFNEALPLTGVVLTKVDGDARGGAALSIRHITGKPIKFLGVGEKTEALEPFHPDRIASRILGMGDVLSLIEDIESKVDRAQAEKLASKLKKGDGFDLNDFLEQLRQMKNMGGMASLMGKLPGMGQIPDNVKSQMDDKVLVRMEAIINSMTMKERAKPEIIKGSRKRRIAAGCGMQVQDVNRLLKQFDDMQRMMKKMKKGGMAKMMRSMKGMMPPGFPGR
B1: bfd 1-73 C43S (Pseudomonas aeruginosa, UniProt Q9HY80); chain MYVCLCQGVTDNQIRDAIYEGCCSYREVREATGVGTQCGKCASLAKQVVRETLNDLQSAQPVPAFGTTAFVAA
B2: RAD23 (Saccharomyces cerevisiae, UniProt P32628); chain MVSLTFKNFKKEKVPLDLEPSNTILETKTKLAQSISCEESQIKLIYSGKVLQDSKTVSECGLKDGDQVVFMVSQKKSTKTKVTEPPIAPESATTPGRENSTEASPSTDASAAPAATAPEGSQPQEEQTATTERTESASTPGFVVGTERNETIERIMEMGYQREEVERALRAAFNNPDRAVEYLLMGIPENLRQPEPQQQTAAAAEQPSTAATTAEQPAEDDLFAQAAQGGNASSGALGTTGGATDAAQGGPPGSIGLTVEDLLSLRQVVSGNPEALAPLLENISARYPQLREHIMANPEVFVSMLLEAVGDNMQDVMEGADDMVEGEDIEVTGEAAAAGLGQGEGEGSFQVDYTPEDDQAISRLCELGFERDLVIQVYFACDKNEEAAANILFSDHAD
B3: acrA (Escherichia coli, UniProt P0AE06); N-terminal lipid at C25; chain CDDKQAQQGGQQMPAVGVVTVKTEPLQITTELPGRTSAYRIAEVRPQVSGIILKRNFKEGSDIEAGVSLYQIDPATYQATYDSAKGDLAKAQAAANIAQLTVNRYQKLLGTQYISKQEYDQALADAQQANAAVTAAKAAVETARINLAYTKVTSPISGRIGKSNVTEGALVQNGQATALATVQQLDPIYVDVTQSSNDFLRLKQELANGTLKQENGKAKVSLITSDGIKFPQDGTLEFSDVTVDQTTGSITLRAIFPNPDHTLLPGMFVRARLEEGLNPNAILVPQQGVTRTPRGDATVLVVGADDKVETRPIVASQAIGDKWLVTEGLKAGDRVVISGLQKVRPGVQVKAQEVTADNNQQAASGAQPEQSKS
B4: Lef1 114-397 (Mus musculus, UniProt P27782); sequence looked up; chain MMPNMNSDPYMSNGSLSPPIPRTSNKVPVVQPSHAVHPLTPLITYSDEHFSPGSHPSHIPSDVNSKQGMSRHPPAPEIPTFYPLSPGGVGQITPPIGWQGQPVYPITGGFRQPYPSSLSGDTSMSRFSHHMIPGPPGPHTTGIPHPAIVTPQVKQEHPHTDSDLMHVKPQHEQRKEQEPKRPHIKKPLNAFMLYMKEMRANVVAECTLKESAAINQILGRRWHALSREEQAKYYELARKERQLHMQLYPGWSARDNYGKKKKRKREKLQESTSGTGPRMTAAYI
B5: bfd 1-73 Y2F/C43S (Pseudomonas aeruginosa, UniProt Q9HY80); chain MFVCLCQGVTDNQIRDAIYEGCCSYREVREATGVGTQCGKCASLAKQVVRETLNDLQSAQPVPAFGTTAFVAA
B6: protein 1-329 G186S (Methylobacterium extorquens, UniProt C5AP93); chain MSATLPDMDTLRERLLAGDRAALARAITLAESRRADHRAAVRDLIDAVLPQTGRAIRVGITGVPGVGKSTTIDALGSLLTAAGHKVAVLAVDPSSTRTGGSILGDKTRMARLAIDRNAFIRPSPSSGTLGGVAAKTRETMLLCEAAGFDVILVETVGVGQSETAVADLTDFFLVLMLPGAGDELQSIKKGILELADMIAVNKADDGDGERRASAAASEYRAALHILTPPSATWTPPVVTISGLHGKGLDSLWSRIEDHRSKLTATGEIAGKRREQDVKWMWALVHERLHQRLVGSAEVRQATAEAERAVAGGEHSPAAGADAIATLIGL
B7: ftsY 47-497 K399A (Escherichia coli, UniProt P10121); chain ASEQAVEEQPQAHTEAEAETFAADVVEVTEQVAESEKAQPEAEVVAQPEPVVEETPEPVAIEREELPLPEDVNAEAVSPEEWQAEAETVEIVEAAEEEAAKEEITDEELETALAAEAAEEAVMVVPPAEEEQPVEEIAQEQEKPTKEGFFARLKRSLLKTKENLGSGFISLFRGKKIDDDLFEELEEQLLIADVGVETTRKIITNLTEGASRKQLRDAEALYGLLKEEMGEILAKVDEPLNVEGKAPFVILMVGVNGVGKTTTIGKLARQFEQQGKSVMLAAGDTFRAAAVEQLQVWGQRNNIPVIAQHTGADSASVIFDAIQAAKARNIDVLIADTAGRLQNKSHLMEELKAIVRVMKKLDVEAPHEVMLTIDASTGQNAVSQAKLFHEAVGLTGITLTKLDGTAKGGVIFSVADQFGIPIRYIGVGERIEDLRPFKADDFIEALFARED
B8: EVA4 24-127 (Rhipicephalus sanguineus, UniProt P0C8E9); N-glycosylated; chain EVPQMTSSSAPDLEEEDDYTAYAPLTCYFTNSTLGLLAPPNCSVLCNSTTTWFNETSPNNASCLLTVDFLTQDAILQENQPYNCSVGHCDNGTCAGPPRHAQCW
UniProt Q16627, sequence (whole entry, looked up): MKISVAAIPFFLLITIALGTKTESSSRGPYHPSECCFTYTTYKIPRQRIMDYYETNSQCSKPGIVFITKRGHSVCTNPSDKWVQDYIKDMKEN
UniProt P00883, sequence (whole entry, looked up): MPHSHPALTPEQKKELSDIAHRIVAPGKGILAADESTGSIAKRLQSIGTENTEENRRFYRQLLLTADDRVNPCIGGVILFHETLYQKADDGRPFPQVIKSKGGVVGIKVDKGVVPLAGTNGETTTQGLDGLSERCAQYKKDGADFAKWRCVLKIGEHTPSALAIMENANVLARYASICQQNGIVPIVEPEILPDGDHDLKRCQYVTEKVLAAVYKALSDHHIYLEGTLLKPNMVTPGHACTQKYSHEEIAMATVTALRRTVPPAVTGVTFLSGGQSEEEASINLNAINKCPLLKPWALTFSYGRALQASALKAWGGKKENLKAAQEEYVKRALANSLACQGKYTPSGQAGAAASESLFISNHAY
UniProt Q8NA31, sequence (whole entry, looked up): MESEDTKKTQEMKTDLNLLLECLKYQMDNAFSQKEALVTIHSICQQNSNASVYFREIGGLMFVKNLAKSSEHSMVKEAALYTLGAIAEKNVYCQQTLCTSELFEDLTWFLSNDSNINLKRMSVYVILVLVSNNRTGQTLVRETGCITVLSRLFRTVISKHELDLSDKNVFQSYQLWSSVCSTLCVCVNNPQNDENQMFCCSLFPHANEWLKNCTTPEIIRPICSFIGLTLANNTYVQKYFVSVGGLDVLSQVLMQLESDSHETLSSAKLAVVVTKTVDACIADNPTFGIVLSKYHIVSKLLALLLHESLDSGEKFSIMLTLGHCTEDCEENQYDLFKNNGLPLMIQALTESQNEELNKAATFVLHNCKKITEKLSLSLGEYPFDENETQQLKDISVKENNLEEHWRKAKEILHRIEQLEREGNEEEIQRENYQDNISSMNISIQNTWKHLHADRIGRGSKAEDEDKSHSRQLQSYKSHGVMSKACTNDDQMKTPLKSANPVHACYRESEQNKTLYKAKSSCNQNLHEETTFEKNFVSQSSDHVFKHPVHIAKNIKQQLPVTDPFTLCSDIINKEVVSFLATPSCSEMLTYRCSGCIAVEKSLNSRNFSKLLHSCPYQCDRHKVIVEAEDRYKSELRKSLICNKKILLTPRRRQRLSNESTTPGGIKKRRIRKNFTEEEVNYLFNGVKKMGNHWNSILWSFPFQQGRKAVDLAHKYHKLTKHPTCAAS
UniProt P25090, sequence (whole entry, looked up): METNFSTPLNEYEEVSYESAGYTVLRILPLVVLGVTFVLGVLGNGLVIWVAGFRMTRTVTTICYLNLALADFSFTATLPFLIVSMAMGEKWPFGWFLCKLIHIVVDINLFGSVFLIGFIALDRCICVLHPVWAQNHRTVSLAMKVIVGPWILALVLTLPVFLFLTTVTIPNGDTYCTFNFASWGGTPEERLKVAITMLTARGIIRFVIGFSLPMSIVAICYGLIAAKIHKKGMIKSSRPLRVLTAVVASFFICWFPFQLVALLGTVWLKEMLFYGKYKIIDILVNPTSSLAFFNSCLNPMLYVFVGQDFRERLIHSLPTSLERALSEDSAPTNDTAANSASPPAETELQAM
UniProt Q86WV6, sequence (whole entry, looked up): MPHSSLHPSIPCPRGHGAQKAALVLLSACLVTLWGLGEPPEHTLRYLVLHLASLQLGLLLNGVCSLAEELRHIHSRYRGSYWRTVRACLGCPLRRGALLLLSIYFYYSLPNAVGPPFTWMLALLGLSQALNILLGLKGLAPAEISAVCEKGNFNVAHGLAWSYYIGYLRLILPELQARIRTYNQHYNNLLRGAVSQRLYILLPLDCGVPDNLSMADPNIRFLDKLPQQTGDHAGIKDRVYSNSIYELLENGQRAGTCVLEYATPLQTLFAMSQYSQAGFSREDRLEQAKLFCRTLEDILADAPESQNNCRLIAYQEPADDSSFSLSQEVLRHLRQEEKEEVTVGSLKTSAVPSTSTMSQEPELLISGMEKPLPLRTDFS
UniProt P26038, sequence (whole entry, looked up): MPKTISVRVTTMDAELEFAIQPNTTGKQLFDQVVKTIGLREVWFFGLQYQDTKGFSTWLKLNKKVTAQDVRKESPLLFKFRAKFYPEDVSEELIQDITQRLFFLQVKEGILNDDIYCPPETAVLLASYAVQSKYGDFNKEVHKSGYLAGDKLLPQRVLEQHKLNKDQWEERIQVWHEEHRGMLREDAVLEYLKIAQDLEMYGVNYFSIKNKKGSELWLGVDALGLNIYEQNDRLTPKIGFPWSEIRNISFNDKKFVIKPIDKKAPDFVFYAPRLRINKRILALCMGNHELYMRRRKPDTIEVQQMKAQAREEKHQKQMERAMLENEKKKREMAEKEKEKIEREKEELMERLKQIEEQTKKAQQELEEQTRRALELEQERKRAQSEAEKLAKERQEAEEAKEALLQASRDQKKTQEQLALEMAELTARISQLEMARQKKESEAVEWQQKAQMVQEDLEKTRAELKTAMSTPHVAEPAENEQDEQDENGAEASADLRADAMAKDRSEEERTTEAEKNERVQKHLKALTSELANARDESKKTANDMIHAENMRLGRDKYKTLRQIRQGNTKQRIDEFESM
UniProt P23946, sequence (whole entry, looked up): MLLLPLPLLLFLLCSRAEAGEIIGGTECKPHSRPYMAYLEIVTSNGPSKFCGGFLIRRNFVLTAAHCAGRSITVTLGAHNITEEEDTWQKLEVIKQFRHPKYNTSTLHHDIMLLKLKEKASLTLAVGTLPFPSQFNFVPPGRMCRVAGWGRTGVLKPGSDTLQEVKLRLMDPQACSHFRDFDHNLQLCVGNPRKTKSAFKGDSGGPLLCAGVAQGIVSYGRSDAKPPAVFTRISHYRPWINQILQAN
UniProt P95980, sequence (whole entry, looked up): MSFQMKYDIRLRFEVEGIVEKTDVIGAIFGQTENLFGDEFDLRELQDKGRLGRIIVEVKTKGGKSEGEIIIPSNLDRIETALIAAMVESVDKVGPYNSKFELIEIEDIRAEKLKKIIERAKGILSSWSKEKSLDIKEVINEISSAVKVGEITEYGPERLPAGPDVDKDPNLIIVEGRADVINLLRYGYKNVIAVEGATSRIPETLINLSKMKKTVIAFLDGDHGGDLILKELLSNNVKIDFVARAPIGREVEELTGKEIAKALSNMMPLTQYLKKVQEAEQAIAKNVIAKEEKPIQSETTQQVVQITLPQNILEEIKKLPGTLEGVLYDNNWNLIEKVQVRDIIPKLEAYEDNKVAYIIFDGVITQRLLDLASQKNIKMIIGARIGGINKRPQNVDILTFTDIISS
UniProt P08603, sequence (whole entry, looked up): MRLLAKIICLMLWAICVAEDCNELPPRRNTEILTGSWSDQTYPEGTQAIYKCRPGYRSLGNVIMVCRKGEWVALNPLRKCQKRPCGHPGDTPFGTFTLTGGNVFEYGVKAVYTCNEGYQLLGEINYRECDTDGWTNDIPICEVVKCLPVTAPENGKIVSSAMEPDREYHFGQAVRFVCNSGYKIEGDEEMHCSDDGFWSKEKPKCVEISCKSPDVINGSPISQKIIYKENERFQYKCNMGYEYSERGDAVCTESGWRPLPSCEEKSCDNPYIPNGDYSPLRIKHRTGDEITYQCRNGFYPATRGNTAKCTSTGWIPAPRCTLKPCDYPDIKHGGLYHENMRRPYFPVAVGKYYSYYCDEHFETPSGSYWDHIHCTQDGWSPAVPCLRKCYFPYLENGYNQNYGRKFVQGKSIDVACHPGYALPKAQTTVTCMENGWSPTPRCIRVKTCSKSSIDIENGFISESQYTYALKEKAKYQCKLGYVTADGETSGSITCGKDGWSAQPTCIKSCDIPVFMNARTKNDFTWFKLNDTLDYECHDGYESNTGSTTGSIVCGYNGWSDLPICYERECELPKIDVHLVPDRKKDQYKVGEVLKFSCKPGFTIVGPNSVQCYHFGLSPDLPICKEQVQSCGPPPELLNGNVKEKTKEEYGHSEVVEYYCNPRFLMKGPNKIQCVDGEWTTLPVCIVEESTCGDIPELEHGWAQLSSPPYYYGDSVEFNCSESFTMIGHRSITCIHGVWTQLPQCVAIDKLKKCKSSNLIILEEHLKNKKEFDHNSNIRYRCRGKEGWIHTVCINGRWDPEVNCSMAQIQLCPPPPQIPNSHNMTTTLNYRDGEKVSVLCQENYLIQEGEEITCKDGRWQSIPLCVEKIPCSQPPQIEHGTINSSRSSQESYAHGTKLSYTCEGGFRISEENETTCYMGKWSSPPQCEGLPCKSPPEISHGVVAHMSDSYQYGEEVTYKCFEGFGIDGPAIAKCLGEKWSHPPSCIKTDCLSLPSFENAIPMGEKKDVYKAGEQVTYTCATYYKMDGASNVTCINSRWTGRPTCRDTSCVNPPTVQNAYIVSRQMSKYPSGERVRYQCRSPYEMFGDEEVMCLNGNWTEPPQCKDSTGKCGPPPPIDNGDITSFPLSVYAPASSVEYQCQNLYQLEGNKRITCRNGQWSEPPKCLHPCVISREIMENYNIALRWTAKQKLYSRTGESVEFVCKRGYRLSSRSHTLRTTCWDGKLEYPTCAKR
UniProt P54274, sequence (whole entry, looked up): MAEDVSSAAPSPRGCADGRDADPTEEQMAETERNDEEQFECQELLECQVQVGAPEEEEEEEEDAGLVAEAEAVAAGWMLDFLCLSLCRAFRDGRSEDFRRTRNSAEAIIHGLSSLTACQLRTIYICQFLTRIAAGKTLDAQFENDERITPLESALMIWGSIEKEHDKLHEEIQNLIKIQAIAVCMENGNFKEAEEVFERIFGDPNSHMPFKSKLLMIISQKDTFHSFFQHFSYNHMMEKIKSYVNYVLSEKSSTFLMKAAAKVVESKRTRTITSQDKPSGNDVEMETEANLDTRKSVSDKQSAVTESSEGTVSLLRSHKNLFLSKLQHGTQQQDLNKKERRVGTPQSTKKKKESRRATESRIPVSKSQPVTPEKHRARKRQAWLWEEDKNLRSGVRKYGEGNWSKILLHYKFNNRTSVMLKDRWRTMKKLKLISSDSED

Substance	tested on	test	test system	setting	scale	endpoint	value
B1 (bfd 1-73 C43S)	bfrB 1-158 E81A (Pseudomonas aeruginosa, UniProt Q9HY79)	Fe2+-bipyridine formation		with: NADPH 1 mM		iron release rate	0.031 min⁻¹
B2 (RAD23)	RPN1/RPN2/20S proteasome core particle reconstituted complex (Saccharomyces cerevisiae)	atomic force microscopy				molecule per partner	1
CAGCCAACCAATCACAGTCGACCCAATCTCTGCTGACCGGACC (dsDNA)	HapB/HapC/HapE/HapX HapX 24-158 (Aspergillus fumigatus)	SPR	double-stranded DNA, one strand shown	HapX on preformed CBC:DNA		Kd	< 100 nM
B3 (acrA)	acrB C493S/C887S/S1043C (Escherichia coli, UniProt P31224)	SPR		two-state model, reverse second step		k-2	0.00111 s⁻¹
N-formyl-Met-Leu-Phe, N-formyl	FPR2 (Homo sapiens, UniProt P25090)	inhibition of forskolin-stimulated cAMP, agonist	CHO-K1			pEC50	< 6 pEC50
CFH mature (Homo sapiens, UniProt P08603)	fhbp (Neisseria meningitidis, UniProt Q9JXV4)	flow cytometry	live bacteria	with: Fab	reference: FH alone, higher = more FH bound	relative binding	3.4 ratio
envC residues 20-end (Pseudomonas aeruginosa)	ftsE 1-223 (Pseudomonas aeruginosa, UniProt A0A069QBX1)	ATPase activity			reference: without EnvC, higher = more ATPase activity	ATPase activity	25 fold
CAAATTCTTTAATTGTTGCTATTATATAATTTTTAAAATTAAAAATATAATCTTTAGACTTGAATTTGATTCTGTATTCACGCCCTCAATAGACGGTAAAATAAGAAAATTGTTTATATATTGTCTCCGTAGTGTTATTATACGAAATAAAAGATTTTAGGAAAAGTCGTTATATCATGCTATACCTATTCTTTGTGGTATAATTGCAAGAGGTTTAATCCG (dsDNA)	Aspartate aminotransferase (Streptococcus pneumoniae, UniProt Q8DNN5)	EMSA	double-stranded DNA, one strand shown	underestimates first site affinity		K1/2	50 nM
EDGGSWKYPDAFELSG (C3P-pd peptide)	MSN 1-345 (Homo sapiens, UniProt P26038)	ITC	peptide	pH 7.4, 25 °C, NaCl 200 mM		molecule per partner	1
B4 (Lef1 114-397)	Dlx2 (Mus musculus, UniProt P40764)	Msx2-872 luciferase	CHO		higher = more activation	reporter activation	62 fold
melittin		CD titration	POPC 50% POPG 50% vesicles	pH 7.0, 50 °C		free energy of partitioning	-7.97 kcal/mol
Pebp1 fragment (Rattus norvegicus) (sequence not shown)	PRKACA fragment (Homo sapiens)	BLI		pH 6.5, 20 °C, with: apo		koff	0.00378 s⁻¹
TBK1 fragment K584A (Homo sapiens)	STING1 (Homo sapiens, UniProt Q86WV6)	IFN-β luciferase reporter	TBK1 KO HEK293T	with: cGAMP	reference: wild-type TBK1, higher = more reduction	reduction of IFN-β reporter	40%
B5 (bfd 1-73 Y2F/C43S)	bfrB 1-158 (Pseudomonas aeruginosa, UniProt Q9HY79)	Fe2+-bipyridine formation		with: NADPH 1 mM		iron release rate	0.097 min⁻¹
KKILLTPRRRQRLS (TERB1 643-656 (Homo sapiens, UniProt Q8NA31))	TERF1 TRFH domain 62-265 (Homo sapiens, UniProt P54274)	crystal structure	peptide			binding	binds
B6 (protein 1-329 G186S)	mcmA (Methylobacterium extorquens, UniProt C5AV67)	GTP hydrolysis		GAP activity, with: MCM 2-fold		kcat	0.0035 s⁻¹
dnaG (Saccharolobus solfataricus, UniProt P95980)	rrp41/rrp42/csl4 exosome, Csl4 homomeric cap (Saccharolobus solfataricus)	co-IP				binding	binds
B7 (ftsY 47-497 K399A)	T1, Ffh/4.5S SRP RNA (Escherichia coli)	translocation			reference: wild-type FtsY, higher = greater reduction	relative translocation efficiency	3 fold
B8 (EVA4 24-127)	CCL14 (Homo sapiens, UniProt Q16627)	chemotaxis inhibition	CCR1 cells	with: CCL14 1010 nM		IC50	2.4 nM
ALDOA (Oryctolagus cuniculus, UniProt P00883)	TRAP C-terminal cytoplasmic tail (Plasmodium falciparum)	SPR		two-state model		kd1	0.052 s⁻¹
RmS-6, glycosylated (Rhipicephalus microplus)	F9 factor IXa (Bos taurus)	chromogenic substrate hydrolysis, inhibitor		1 µM		protease inhibition	< 20%
IgG Fc Fc (Homo sapiens)	MUC16 fragment	ELISA			reference: whole IgG, higher = more binding	relative binding	60%
RmS-17, glycosylated (Rhipicephalus microplus)	CMA1 (Homo sapiens, UniProt P23946)	chromogenic substrate hydrolysis, inhibitor		1 µM		protease inhibition	< 20%
{FITC}-GFID[pS]D[pT]DVEEE-NH2 (peptide; N-terminal FITC, pS5, pT7, C-terminal amide; FITC = O=C1OC2(c3ccc(O)cc3Oc3cc(O)ccc32)c2ccc(NC(=S)*)cc21; pS = N[C@@H](COP(=O)(O)O)C(=O)O; pT = C[C@@H](OP(=O)(O)O)[C@H](N)C(=O)O)	TOPBP1 641-746 Y678A (Homo sapiens, UniProt Q92547)	fluorescence polarisation	peptide	pH 7.5, NaCl 150 mM		Kd	21000 ± 2000 nM

For quick reference, copied from above:
Substance	tested on	test	test system	setting	scale	endpoint	value
KKILLTPRRRQRLS (TERB1 643-656 (Homo sapiens, UniProt Q8NA31))	TERF1 TRFH domain 62-265 (Homo sapiens, UniProt P54274)	crystal structure	peptide			binding	binds
N-formyl-Met-Leu-Phe, N-formyl	FPR2 (Homo sapiens, UniProt P25090)	inhibition of forskolin-stimulated cAMP, agonist	CHO-K1			pEC50	< 6 pEC50
dnaG (Saccharolobus solfataricus, UniProt P95980)	rrp41/rrp42/csl4 exosome, Csl4 homomeric cap (Saccharolobus solfataricus)	co-IP				binding	binds
